# Measurements gathered from unrelated publications.
# Every numbered part comes from another study and shows a few of its results, in no order.

# Study 1
# Target: RNA binding protein fox-1 homolog 2, RRM domain, GST-SBP tag (RBFOX2, Homo sapiens, UniProt O43251-10, residues 100-194)
# Technique: RNA Bind-n-Seq
# Molecule type: RNA
# Matrix: in vitro
# Concentration: 365 nM
# Setting: natural RNA segment, single round, ends assumed
# Reference: no-protein control
# Reading: higher = stronger binding
# Constant ends, left off below: GGGAGUUCUACAGUCCGACGAUC … UGGAAUUCUCGGGUGCCAA
# Residues (chain): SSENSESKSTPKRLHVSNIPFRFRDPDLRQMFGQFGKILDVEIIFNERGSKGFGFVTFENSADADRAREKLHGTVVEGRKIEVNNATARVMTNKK
Oligonucleotide,RBNS enrichment (R)
AAGUUCUCUUUCCCACUGUUUAAUUUGACAAGAGAAGAAUUUGAAGGAUAUGAACAUUUUCAAGAACUCUGCUGAGGUCACUUAGAGCGCCAUCACAACUUAUUUGUGUG,0.252
GCCGCCAGCUGGCACCUGCCUCUAUCCCAGACUGCCCUCGUCCCAGCUCUCUGUCCAACUGUUGAUUAUGUGAUUUUUCUGAUACGUCCAUUCUCAAAUGCCAGUGUGUU,1.17
ACCAGUGGAAGCACAGCUCCAAGUUCAGACAGGUGCCCUUAGAGAGGAAAACCAUGACAGGCAAAUGCAUUUCCUCUGGAGUUUGAGACCCUGACAAACAACAGGUGGCA,0.701
GAUCCUGGAGAGGCAGGGAUAGUAAAUAAAUUGCUCUUCCUACCCCAUCCCCCAUCCCCUGACAAAAAGUGACGGCAGCCGUACUGAGUCUGUAAGGCCCAAAGUGGGUA,0.487
ACAGAGGUGUGAAUAAAAGCAUCAGGAAAUCGGAUGGAGAACCACCAUUCACCCAAGGGUCAGAGGAGGUUUCAAAGAAAAGGUGUCAUUGGAGCAGUGUUUUGCAGAAU,0.654
GCCAGUUUGAAUUAGAAGGCAAGGCUCUGAUUUUAGUAGUGUUUUGGAAAAGGACUUUUUUCUUCACCUUCCUCUUUGCCUCAUGUGUACACACACACACACAUCUUGUA,0.983

# Study 2
# Target: Interferon regulatory factor 3, full length, phosphomimetic (IRF3, Homo sapiens, UniProt Q14653, residues 1-427, S386D/S396D/S398D/S402D/T404D/S405D)
# Technique: protein-binding microarray
# Molecule type: double-stranded DNA, one strand shown
# Matrix: in vitro
# Concentration: 2540 nM top
# Setting: 60-bp whole probe
# Added: salmon DNA 0.4 mg/ml
# Reference: random background probes
# Reading: higher = stronger binding
# Constant ends, left off below: GCCTAGCAC … GTCTTGATTCGCTTGACGCTGCTG
# Construct (chain): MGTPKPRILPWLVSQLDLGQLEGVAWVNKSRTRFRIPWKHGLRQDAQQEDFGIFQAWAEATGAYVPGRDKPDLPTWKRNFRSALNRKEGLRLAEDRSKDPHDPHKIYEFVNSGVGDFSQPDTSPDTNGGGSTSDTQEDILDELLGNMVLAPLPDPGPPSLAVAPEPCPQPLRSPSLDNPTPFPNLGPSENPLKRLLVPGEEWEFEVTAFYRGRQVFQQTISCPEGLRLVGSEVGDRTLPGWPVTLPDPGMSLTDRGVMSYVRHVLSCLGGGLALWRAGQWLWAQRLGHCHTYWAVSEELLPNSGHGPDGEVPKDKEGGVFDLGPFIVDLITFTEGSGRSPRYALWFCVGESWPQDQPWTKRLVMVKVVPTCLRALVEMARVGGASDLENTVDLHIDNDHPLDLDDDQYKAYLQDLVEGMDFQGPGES
Oligonucleotide,fitted relative affinity [z-score]
TTAGAACTGGGGTTTGGATTAGTGCTA,-0.738
TCATTTTTTTTCCTAATACTGTGCTAG,2.1
TTAGATCTCAGCTTCGATTAGTGCTAG,0.167
GACGGTCTCAGTCTCGAGACGTGCTAG,1.13
TCAAATCTGTGTTATTAAACTGTGCTA,-0.0345
TTAGATCTAAGTCTCGATTAGTGCTAG,0.0434

# Study 3
# Target: Centromere-binding protein 1, full length, N-terminal tag (CBF1, Saccharomyces cerevisiae, UniProt P17106, residues 1-351)
# Sequence of UniProt P17106 (whole entry, looked up): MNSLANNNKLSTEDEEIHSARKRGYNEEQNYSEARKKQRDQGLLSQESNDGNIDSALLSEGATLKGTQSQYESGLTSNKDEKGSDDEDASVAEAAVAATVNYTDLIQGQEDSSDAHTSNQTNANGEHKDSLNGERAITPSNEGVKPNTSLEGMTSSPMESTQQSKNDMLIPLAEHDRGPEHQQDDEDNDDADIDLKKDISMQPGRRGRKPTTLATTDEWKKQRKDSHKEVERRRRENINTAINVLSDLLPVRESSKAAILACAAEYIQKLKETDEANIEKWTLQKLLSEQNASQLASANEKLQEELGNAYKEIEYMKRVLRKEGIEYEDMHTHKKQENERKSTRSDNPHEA
# Technique: protein-binding microarray
# Molecule type: double-stranded DNA, one strand shown
# Matrix: in vitro
# Concentration: 0.8 µM
# Setting: whole 60-bp probe, no competitor
# Reading: higher = stronger binding
# Constant ends, left off below: … GTCTTGATTCGCTTGACGCTGCTG
Oligonucleotide,fluorescence intensity
CTAGGCAACACTAATCACGCAACGCTAGAACTCTTC,575 a.u.
CTACGCCATGTCCAACACGTTGCTGGCCGCAAATTC,544 a.u.
GAAAGCTACATTGTTCACCATATTATACTATATTAG,503 a.u.
CTATTATGTTTAATCCACGTTACACCACCAATTTTC,591 a.u.
GAATCCCATGACAAACTCACCTGGATAGTATGGTAG,560 a.u.

# Mixed results
Molecule,target,test,system,setting,how to read,quantity,result
"PhoQ, residues 284 288 289 292 302 303 SCEHLI","PhoP, residues 12 14 15 18 19 LYFRQ (Escherichia coli, UniProt P23836)","Sort-seq, item: YFP reporter",E. coli,"PhoQ-PhoP variant library, added: 10 µM Mg2+","reference: high Mg2+ state, higher = stronger signaling",fold induction,20.9

# For quick reference, copied from above (mixed results):
Molecule,target,test,system,setting,how to read,quantity,result
"PhoQ, residues 284 288 289 292 302 303 SCEHLI","PhoP, residues 12 14 15 18 19 LYFRQ (Escherichia coli, UniProt P23836)","Sort-seq, item: YFP reporter",E. coli,"PhoQ-PhoP variant library, added: 10 µM Mg2+","reference: high Mg2+ state, higher = stronger signaling",fold induction,20.9
